# Published values pooled from the literature.
# Numbered parts are unrelated; each lists some results of a single study. Positions count from the first letter of the parent shown.

# Study 1
# Target: ABI1, truncated, D143A, DHFR fusion (Arabidopsis thaliana)
# Method: DHFR PCA, deep sequencing
# Sample: yeast
# Notes: methotrexate growth selection, single substitutions
# With: (+)-ABA 17 µM
# Reference: wild-type fitted maximum
# Direction: higher = stronger binding
# Starting sequence: PYL1, truncated, DHFR fusion (Arabidopsis thaliana); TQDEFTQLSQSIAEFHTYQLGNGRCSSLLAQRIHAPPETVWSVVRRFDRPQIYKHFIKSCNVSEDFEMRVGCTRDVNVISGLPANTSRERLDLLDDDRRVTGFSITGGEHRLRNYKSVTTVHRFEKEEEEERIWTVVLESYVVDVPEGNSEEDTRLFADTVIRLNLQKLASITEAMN; partner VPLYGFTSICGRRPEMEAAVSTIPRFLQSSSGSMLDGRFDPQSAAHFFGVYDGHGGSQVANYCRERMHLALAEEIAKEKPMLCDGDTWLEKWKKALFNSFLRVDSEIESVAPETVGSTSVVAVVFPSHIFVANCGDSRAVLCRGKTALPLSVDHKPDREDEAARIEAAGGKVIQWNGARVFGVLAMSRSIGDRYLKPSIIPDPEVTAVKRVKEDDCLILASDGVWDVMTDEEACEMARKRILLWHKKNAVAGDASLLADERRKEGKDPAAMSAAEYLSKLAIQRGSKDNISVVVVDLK
Change,relative binding score [%]
R32P,62.9
K58V,40.7
P36E,74.7
S9T,79.6
D65C,70.5
C25E,-4.55
V137Y,4.84
V43K,7.29
T119S,22.6
D97C,77.7
R46G,38.6
G23L,49.7
V121S,10.9
C72P,1.1
S9F,63.5
E125V,94.2
Y53F,51.3
F103A,-10.9
A175H,87.1
S140Y,-2.75
A175M,85.2
E89C,-14.2
Q167S,87.2

# Study 2
# Target: Histone acetyltransferase KAT6A, both winged helices, GST fusion (KAT6A, Homo sapiens, UniProt Q92794, residues 1-181)
# Method: protein binding microarray
# Form: double-stranded DNA, one strand shown
# Sample: in vitro
# Concentration: not given
# Notes: 8-mer, flanks averaged, mean of 2 arrays, mostly near background
# Reference: not given
# Direction: higher = stronger binding
# Construct (chain): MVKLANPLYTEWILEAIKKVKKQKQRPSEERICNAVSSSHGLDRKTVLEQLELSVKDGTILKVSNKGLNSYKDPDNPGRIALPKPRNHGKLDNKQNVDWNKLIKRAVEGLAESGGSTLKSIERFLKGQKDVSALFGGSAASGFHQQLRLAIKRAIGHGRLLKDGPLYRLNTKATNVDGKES
Oligonucleotide,E-score
AATTGCAC,-0.223
CGTTGTTA,-0.0656
CCTTAGAC,-0.0113
TGCTCGAA,-0.0518
GGTCTCAC,0.0139
CTGCCTTC,-0.0945
AACCGGCG,0.29
GGCTGTGA,0.00749
GTTAATGA,-0.138
ATCGACTC,-0.172
CCCCATAA,-0.219
AGACCTAC,-0.0753
GTGGAGCA,-0.0982
GACTTCCA,-0.15
AATCTTCC,-0.13
CAGGCGCC,0.116
CATACCCA,-0.242
ACACAACA,0.0553
CAGTTCCC,0.111
AGATGGAC,0.0262
AAAGCCTT,-0.152
CCGGACAC,0.139
CACGTTGC,-0.0321
ATAGGAAC,-0.131
CCTTGTTC,-0.0907

# Study 3
# Target: RNA binding protein fox-1 homolog 2, RRM domain, GST-SBP tag (RBFOX2, Homo sapiens, UniProt O43251-10, residues 100-194)
# Method: RNA Bind-n-Seq
# Form: RNA
# Sample: in vitro
# Concentration: 365 nM
# Notes: natural RNA segment, single round, ends assumed
# Reference: no-protein control
# Direction: higher = stronger binding
# Target sequence (chain): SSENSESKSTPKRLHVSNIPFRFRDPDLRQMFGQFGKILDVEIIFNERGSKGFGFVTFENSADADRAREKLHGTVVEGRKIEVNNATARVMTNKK
Oligonucleotide,RBNS enrichment (R)
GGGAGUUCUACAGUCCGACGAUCUCCGAUUUGCCAUCGAAAAAGACAACCUCUACUUUUUUCUUUUGUAUUUUGAUAAACACUGAAGCUGGAGCUGUUAAAUUUAUCUUGGGGAAACCUCAGAACUGGUCUAUUGGAAUUCUCGGGUGCCAA,0.557
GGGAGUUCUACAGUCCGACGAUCAAGUGAGUGCCAAGGGGAUUUAGUGGUGUGGUUCUUUCAAAGGGAGGUCAGGGUCAAUGGGAAUCUGCUCGGACACUCAACAUGGGGGUGGGUGCACUCCUUGGAGGAGGUGGAAUUCUCGGGUGCCAA,2.4
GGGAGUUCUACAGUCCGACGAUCCAUUUUUACACUUUAGGAGUAAUCUGGAAUUCAAAAGGGAAUGAGAGCUUACUCCCUUCCACAGUUUCCUCCAAGCCCUGUCCUGAGAAUUCUGACCCUCGACACCUGAGUGGAAUUCUCGGGUGCCAA,0.299
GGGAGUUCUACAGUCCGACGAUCCUAGAAACCAAUGAGCUUUAGAUUCAUUCCUGGGUUUUUGCUUAAAAAAAAGUGAACUAAUAUAGCAUCAGGUAAGCAUUGUCACAGAGCCAAGCCUGGUAGGAUUUGUCUGGAAUUCUCGGGUGCCAA,0.512
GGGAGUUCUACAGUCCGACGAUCCUUGACGCAGUGUGUUUUAGGUGUUUGUCUUUGUACUUUUUUGUGAUUUUUGAAUGCACGUGCGCAGGAAGGGCUCCUCUUAGAGAAGCAGUCAAACUGUGAAGCACUAAUGGAAUUCUCGGGUGCCAA,8.09
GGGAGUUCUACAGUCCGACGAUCCUACAGAAAAAAGACAAGUGGAAGUGGUUUACCAAUACCUAGCAUGGUACAAUCAGAGCUCCGUGGGGACUGUAGGGAGCAGGGUGUUACUACUGGCCGUUCUUCCCACAUGGAAUUCUCGGGUGCCAA,0.511
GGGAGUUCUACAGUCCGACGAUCAUUUUGUGCUUCUGUUAAUGUCUAGCAUUUUAAACAUAGGAUAACAUUGUUUUGGACACUGGAAUAAUAUGAUUUAUUUUCACCUGUAAAAAUGACUUCAUUGUACUUGAUGGAAUUCUCGGGUGCCAA,0.482
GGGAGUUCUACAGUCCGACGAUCAAGAGGAGGAAAGGGGACCAAAGGGAAGUGAGGUCCUAGAGCGUUGACACUGAGGGAAGUCCUAUCUGUCAGUCCUGACCACUUAAGCCAGGACCCCAUGCUUCCUUUACUGGAAUUCUCGGGUGCCAA,0.948
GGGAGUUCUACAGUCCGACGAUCGGCCCAUUGCUGACGAUUAGUUCUAAAAUCUUAUUCCUCCUCUUCUCCCCUCACUUUUCCCUACUUCCUCUGCAAAAAGAUUUAACAAAUACAUUCAUAAGGAAAUGUGUUGGAAUUCUCGGGUGCCAA,0.578
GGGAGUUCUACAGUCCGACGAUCCUUUCCGUCUGCGACCUCACUCACAGGACUUGAGUAUUUCCGACCUCACGGGUCACCCCAGCCCUCUGCAAAGCCUUGCCGUGCUAUGUUUCAGGUUCACGUUCAGCUCUUGGAAUUCUCGGGUGCCAA,0.431
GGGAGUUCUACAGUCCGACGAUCCCAAUUUGAAUUCAGGAUUACAGUGCUCCUUUCAUUCUUUCAAACAGAUAACAUAAAAGUUCUGUUACCCUCAUUCUAUACAACCUAUGGAUUUCAUGUGUUACAAUAUCUGGAAUUCUCGGGUGCCAA,0.331
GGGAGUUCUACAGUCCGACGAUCAAGGGCCUCCUUGUUCUUUCCCAGAAACAUUCAGUGGCUUGGACCAACCCCUGAGUAUAUACAUUGGCUCUUUCCCCCCUGUACCUUAUCUCUCCCCUCCAUCCCCUCCCUGGAAUUCUCGGGUGCCAA,0.659

# Study 4
# Target: RING finger protein unkempt homolog, zinc fingers 1-6, GST-SBP tag (UNK, Homo sapiens, UniProt Q9C0B0, residues 30-357)
# Chain of UniProt Q9C0B0 (30-357, looked up): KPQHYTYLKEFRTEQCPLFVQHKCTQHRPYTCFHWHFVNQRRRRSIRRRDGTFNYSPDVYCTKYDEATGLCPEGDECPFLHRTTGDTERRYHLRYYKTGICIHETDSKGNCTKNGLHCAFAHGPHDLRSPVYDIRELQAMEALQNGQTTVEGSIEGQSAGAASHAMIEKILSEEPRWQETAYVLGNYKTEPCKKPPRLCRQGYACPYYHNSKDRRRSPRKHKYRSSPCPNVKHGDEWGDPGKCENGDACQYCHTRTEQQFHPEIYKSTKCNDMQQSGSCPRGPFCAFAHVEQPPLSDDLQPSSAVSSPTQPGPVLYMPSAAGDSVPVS
# Method: RNA Bind-n-Seq
# Form: RNA
# Sample: in vitro
# Concentration: not given
# Notes: RNA with constant flanks, human and mouse sites, ends assumed
# Reference: input RNA pool
# Direction: higher = stronger binding
Oligonucleotide,bound/input enrichment
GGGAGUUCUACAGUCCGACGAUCGUUCCAGACCCUGAGCUGAUUGAUCUGAUCUACUGUGGUCGGAAGCUAAAAGAUGACCAGACACUUGACUUCUAUGGCAUUCAACCUGGGUCCACUGUCCAUGUUCUGCGAAAGUCCUGGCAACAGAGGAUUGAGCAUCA,0.112 ratio
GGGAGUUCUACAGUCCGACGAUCAGAGCAGAGGCCAUGAAUAUUAAAAUAGAACCCGAGGAGACAACGGAAGCCAGAACUCAUAAUCUGAGACGUCGAAUGGGUUGUCCAACUCCAAAAUGUGAAAAUGAGAAAGAAAUGAAGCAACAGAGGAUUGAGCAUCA,0.871 ratio
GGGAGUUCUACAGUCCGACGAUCCUUAAAGAGCUUGAAGCUAAAGCCUAUAAACAGAUUGAUGCACGUGGUGGGAACCCUGAGCUAGUAGCCUUAGUAAAACACUUAAGUAAGAUGUUCAAAGAAGAAAAUGAAUAAUGUUAACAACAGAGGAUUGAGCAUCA,21 ratio
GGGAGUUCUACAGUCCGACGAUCGCAGAUGCUGAGGUUGCCAGGAGGAAAUCAGUCCCAUCAGAGACUGUGGUUGAGGAUAGUCGUACUGGCUUGCCCCCGGUAACUGAUGAAAACCAUGUCAUUGUAAAAACGGACAGUCAGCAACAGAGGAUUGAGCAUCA,0.127 ratio
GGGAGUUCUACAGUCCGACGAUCAUUAAUGCCCUUACUCUAUUUGAGAUUAUCUAUGACAAUCUCAGAGCAGAAGUGUUUAACUAUAGAGAAUUCAAUAAAGGUUCCCUUUUUUACUUAUGCACUACAUCUGGAGUGUGUGUUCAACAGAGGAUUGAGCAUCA,0.257 ratio
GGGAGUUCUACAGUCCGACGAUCGUUCAAUAUAUUUAUAUGUACAUGCAUACAUAUAUAUCCCUUUACAUAUAUAUAUGUAUGUUGGUGUGAGUGUGUGUGUAUGUGUGGGUGUGUGUUGCAUACACAAAAUCAGGCACUUACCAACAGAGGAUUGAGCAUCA,0.321 ratio
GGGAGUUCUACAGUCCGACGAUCGAAGAAGGCUGCUUUAUGUUUAUUUUUCAAGACUUUAAAAAUAUUUUUUGGUUGUAUUGCACUAGGAAAUCUCUCCCACCUCUCCCUUUUCUCUUUCUUUCCCUAUACAAAAUAAAAGGCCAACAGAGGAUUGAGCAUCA,0.966 ratio
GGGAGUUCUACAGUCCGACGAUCCCUGUUCUCAGUAAAGACCGCAACUUUCAUGUUUUCUUGGAAUAUGAUCAGGAUCUAAGUGUUAGACGGAAGAAUACCAAGGAGAUGUUUGGAGGCUUUUUUAAAAGUGUGGUGAAGAGCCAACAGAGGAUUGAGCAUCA,0.154 ratio
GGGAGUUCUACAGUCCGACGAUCUGUGUGACAUUUGCUGCAGAUGAACCCGUGUACAUUGCUGGUCAACAGGCUUUUUUCAACUAUUCUACAAGCAAAAGGAUCACUCGGCCAGGAAAUACUGAUGAUCCAUCAGGAGGCAACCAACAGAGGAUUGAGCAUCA,0.138 ratio
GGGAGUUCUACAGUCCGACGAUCACGCGGAACAUGGCGCGUUCCUAGAAGCCGUUUUCGGCAUCAGUAGGCGGCAGCGUGUGGACUAGGAGCGUGGGGGACGAGGAAGCAACCAACGCCGCUUCGUGUGGACAAGUGGAAAGGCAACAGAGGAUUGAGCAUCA,0.228 ratio
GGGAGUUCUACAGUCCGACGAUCCGUGUAAGUCAGAUGCUGAUUUUGACUCCAUUUCAAGGUCAAGGCCAUGGUGCUCAACUUCUUGAAACAGUUCAUAGAUACUACACUGAAUUUCCUACAGUUCUUGAUAUUACAGCGGAACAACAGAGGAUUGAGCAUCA,0.395 ratio

# For quick reference, copied from above (study 2):
Oligonucleotide,E-score
ATCGACTC,-0.172
TGCTCGAA,-0.0518
CACGTTGC,-0.0321
GACTTCCA,-0.15
ATAGGAAC,-0.131
AGACCTAC,-0.0753
GGCTGTGA,0.00749
GTTAATGA,-0.138
